Results collected from several papers.
A part holds a random share of what one study measured. Changes are numbered by the printed parent chain.
UniProt Q9UHD2, sequence (whole entry, looked up): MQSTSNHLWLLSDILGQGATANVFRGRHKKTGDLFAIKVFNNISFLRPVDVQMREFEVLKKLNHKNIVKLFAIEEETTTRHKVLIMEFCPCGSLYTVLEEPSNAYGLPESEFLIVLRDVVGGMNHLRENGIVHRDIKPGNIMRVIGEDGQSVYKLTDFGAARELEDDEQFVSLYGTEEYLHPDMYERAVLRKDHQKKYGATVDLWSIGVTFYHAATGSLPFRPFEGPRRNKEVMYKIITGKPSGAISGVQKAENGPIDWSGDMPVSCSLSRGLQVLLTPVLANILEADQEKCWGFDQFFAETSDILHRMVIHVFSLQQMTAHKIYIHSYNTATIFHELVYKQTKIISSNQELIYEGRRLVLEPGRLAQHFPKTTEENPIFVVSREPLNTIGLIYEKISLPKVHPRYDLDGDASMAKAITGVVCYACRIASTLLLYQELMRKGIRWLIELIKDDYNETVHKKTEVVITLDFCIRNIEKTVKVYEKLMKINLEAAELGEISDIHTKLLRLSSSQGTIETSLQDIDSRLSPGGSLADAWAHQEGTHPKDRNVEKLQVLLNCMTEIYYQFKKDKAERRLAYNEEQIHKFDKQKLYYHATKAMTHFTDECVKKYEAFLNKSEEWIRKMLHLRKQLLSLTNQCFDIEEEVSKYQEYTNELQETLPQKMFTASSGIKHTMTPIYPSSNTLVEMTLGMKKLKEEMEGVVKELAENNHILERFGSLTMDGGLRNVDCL
UniProt Q96PY6, sequence (whole entry, looked up): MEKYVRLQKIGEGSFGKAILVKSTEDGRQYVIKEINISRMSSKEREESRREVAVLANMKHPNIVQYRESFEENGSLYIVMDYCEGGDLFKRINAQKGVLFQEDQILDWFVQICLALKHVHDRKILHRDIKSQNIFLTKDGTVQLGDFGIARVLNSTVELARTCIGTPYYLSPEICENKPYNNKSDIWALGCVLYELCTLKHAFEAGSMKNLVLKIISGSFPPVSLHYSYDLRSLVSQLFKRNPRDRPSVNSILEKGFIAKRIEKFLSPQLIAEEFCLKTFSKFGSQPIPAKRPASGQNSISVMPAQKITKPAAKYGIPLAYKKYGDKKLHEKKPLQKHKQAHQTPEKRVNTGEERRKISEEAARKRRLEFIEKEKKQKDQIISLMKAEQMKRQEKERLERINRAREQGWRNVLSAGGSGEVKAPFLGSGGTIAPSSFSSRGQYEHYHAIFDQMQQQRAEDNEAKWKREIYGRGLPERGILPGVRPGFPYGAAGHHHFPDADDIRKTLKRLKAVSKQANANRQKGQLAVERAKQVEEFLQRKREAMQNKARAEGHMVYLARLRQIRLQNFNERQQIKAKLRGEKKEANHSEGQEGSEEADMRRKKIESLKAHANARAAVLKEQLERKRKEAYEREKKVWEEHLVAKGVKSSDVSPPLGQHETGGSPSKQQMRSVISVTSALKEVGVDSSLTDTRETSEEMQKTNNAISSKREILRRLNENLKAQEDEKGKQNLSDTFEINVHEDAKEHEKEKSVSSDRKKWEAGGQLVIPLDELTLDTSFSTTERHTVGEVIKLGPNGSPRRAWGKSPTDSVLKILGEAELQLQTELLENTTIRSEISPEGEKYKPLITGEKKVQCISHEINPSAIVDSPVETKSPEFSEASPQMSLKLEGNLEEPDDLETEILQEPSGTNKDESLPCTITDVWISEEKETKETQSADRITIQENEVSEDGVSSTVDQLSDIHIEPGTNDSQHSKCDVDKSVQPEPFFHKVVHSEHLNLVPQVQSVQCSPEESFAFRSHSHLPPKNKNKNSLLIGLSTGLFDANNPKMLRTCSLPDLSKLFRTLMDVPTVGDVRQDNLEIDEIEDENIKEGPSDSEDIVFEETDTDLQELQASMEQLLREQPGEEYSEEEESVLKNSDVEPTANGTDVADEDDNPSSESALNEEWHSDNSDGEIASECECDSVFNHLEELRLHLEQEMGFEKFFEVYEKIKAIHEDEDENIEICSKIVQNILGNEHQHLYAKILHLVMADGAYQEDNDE
UniProt Q9UL54, sequence (whole entry, looked up): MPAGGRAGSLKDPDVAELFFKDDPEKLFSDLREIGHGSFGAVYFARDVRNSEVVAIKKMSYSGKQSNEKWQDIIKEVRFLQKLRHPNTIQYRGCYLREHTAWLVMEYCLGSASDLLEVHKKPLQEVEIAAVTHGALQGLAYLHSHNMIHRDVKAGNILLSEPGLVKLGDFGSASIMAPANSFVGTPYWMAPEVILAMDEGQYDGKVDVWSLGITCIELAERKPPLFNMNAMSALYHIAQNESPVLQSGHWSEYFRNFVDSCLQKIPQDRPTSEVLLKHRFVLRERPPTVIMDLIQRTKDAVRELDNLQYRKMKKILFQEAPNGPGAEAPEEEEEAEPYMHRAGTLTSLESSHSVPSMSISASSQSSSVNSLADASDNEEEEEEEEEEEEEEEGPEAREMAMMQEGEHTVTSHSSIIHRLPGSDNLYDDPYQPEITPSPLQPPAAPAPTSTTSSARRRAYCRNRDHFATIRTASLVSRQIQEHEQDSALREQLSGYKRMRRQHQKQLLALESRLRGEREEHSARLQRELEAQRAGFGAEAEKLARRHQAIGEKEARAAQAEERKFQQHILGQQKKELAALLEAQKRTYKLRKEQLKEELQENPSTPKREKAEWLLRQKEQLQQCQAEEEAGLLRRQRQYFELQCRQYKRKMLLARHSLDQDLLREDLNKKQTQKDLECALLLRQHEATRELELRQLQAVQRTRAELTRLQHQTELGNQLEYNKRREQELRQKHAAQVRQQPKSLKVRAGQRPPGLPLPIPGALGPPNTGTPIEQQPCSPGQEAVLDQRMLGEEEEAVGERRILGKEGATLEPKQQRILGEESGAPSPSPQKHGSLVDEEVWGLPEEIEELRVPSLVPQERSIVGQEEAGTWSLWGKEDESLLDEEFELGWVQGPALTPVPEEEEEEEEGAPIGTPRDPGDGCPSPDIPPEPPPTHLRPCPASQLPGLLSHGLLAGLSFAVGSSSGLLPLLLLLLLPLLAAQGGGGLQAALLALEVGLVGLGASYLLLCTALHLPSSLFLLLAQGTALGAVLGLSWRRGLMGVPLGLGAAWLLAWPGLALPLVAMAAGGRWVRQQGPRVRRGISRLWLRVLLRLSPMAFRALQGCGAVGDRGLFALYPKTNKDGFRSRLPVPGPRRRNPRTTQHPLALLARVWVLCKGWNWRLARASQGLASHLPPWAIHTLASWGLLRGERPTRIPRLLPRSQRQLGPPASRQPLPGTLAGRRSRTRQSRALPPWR
UniProt P36896, sequence (whole entry, looked up): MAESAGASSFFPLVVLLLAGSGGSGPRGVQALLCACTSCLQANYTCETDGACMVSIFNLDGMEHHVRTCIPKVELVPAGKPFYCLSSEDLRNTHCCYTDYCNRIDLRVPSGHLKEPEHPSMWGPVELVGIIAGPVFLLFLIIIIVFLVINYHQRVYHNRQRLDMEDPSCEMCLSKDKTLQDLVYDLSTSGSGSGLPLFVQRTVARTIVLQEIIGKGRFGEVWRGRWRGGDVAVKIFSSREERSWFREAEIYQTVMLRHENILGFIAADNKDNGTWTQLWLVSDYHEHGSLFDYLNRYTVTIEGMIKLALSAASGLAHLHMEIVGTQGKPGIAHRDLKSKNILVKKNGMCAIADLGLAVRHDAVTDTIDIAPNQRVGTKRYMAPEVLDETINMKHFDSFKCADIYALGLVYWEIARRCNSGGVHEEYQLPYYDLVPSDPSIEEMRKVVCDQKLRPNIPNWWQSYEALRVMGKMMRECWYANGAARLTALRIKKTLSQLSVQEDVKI
UniProt P42685, sequence (whole entry, looked up): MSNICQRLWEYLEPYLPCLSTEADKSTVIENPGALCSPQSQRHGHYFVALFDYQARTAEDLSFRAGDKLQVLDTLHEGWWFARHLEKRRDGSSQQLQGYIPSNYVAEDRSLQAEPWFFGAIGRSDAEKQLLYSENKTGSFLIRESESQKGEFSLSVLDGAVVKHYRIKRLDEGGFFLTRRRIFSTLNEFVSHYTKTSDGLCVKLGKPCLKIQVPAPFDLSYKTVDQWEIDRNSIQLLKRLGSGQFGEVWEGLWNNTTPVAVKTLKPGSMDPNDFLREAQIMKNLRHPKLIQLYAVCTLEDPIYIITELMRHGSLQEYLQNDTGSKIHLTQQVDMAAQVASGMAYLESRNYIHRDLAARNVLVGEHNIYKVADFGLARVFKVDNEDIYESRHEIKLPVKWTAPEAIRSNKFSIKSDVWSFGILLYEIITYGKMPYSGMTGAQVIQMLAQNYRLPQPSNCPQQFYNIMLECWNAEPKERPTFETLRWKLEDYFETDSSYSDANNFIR
UniProt P49137, sequence (whole entry, looked up): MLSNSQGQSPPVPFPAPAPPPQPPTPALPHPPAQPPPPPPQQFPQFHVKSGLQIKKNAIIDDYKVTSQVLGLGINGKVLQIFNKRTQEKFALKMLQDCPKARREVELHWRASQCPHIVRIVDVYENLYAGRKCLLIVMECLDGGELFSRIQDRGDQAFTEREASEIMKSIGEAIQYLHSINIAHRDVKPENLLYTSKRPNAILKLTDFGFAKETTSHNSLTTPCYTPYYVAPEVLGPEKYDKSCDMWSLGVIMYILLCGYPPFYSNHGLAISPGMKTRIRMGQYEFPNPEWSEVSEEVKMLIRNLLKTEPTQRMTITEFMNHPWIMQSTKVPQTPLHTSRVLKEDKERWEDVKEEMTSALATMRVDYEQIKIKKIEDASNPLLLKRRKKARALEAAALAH

Block 1 — target: CREB3, bZIP domain (human); method: DHFR protein complementation; sample: yeast; relative to: wild-type JUN-FOS pair; reading: higher = stronger binding; measurement: binding fitness
Notes: single substitutions, most at no-binding floor
Parent: JUN, bZIP domain (human); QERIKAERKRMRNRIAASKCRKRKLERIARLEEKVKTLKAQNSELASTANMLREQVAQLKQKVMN; partner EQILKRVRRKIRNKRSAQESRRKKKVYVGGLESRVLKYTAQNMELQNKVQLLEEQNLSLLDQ
E44A: -1.38 natural log
S43C: -1.57 natural log
E54T: -1.53 natural log
E32T: -1.3 natural log
A29H: -1.48 natural log
L59G: -1.38 natural log
E32P: -1.45 natural log
E54A: -1.41 natural log

Block 2 — effect on: cell-free assay; method: competition with immobilised ligand; concentration: 1 µM; measurement: remaining binding
SMILES: CCC(=O)N[C@@H]1CC[C@H](C(=O)N(C)c2ccc(-c3nc4ccccc4o3)cc2)C1
SGK3 (Homo sapiens, UniProt Q96BR1): 100%
EGFR (Homo sapiens, UniProt P00533, del747-752/P753S): 75%
PRKD2 (Homo sapiens, UniProt Q9BZL6): 100%
ERBB3 (Homo sapiens, UniProt P21860): 100%
WNK3 (Homo sapiens, UniProt Q9BYP7): 100%
CDK11B (Homo sapiens, UniProt P21127): 100%
PIK3CB (Homo sapiens, UniProt P42338): 100%
PAK6 (Homo sapiens, UniProt Q9NQU5): 100%
eIF-2-alpha kinase GCN2, C-terminal kinase domain (EIF2AK4, Homo sapiens, UniProt Q9P2K8, S808G): 54%
PKN1 (Homo sapiens, UniProt Q16512): 84%

Block 3 — target: CCNE1, cyclin fold, Cln2 fusion (human); method: yeast growth competition, sequencing; sample: yeast; notes: strong parent motif; relative to: not given; reading: higher = stronger binding; measurement: normalised enrichment score
Parent: GMNC docking peptide (human); KNAKRNLSSEFAN
A12P: 0.281
E10Y: 0.397
S8Y: 1.44
K4N: -0.00859
L7T: 0.157
S9R: 1.97
N6K: 0.162
E10K: -0.18

Block 4 — SMILES: Fc1ccc(-c2nc3n(c2-c2ccncc2)CCS3)cc1; effect on: enzyme activity; action: inhibitor; concentration: 0.5 µM; relative to: control; measurement: remaining activity
ULK3 (Homo sapiens, UniProt Q6PHR2): 79.2%
WEE1 (Homo sapiens, UniProt P30291): 92.2%
FRK (Homo sapiens, UniProt P42685): 104%
RPS6KA2 (Homo sapiens, UniProt Q15349): 97.1%
MAP3K14 (Homo sapiens, UniProt Q99558): 103%
TAOK2 (Homo sapiens, UniProt Q9UL54): 95.7%
NEK1 (Homo sapiens, UniProt Q96PY6): 103%
MAP2K2 (Homo sapiens, UniProt P36507): 106%
ACVR1B (Homo sapiens, UniProt P36896): 115%
MAPKAPK2 (Homo sapiens, UniProt P49137): 101%
MERTK (Homo sapiens, UniProt Q12866): 88.7%
EPHA3 (Homo sapiens, UniProt P29320): 112%
TBK1 (Homo sapiens, UniProt Q9UHD2): 90.6%

Repeated from above (block 4):
MAP3K14 (Homo sapiens, UniProt Q99558): 103%
TAOK2 (Homo sapiens, UniProt Q9UL54): 95.7%
NEK1 (Homo sapiens, UniProt Q96PY6): 103%
MAP2K2 (Homo sapiens, UniProt P36507): 106%
